Experimental data gathered from unrelated publications.
A part holds a random share of what one study measured. Values joined by “and” are separate records of one study, mostly repeats; a detail may differ.
UniProt Q15418, sequence (whole entry, looked up): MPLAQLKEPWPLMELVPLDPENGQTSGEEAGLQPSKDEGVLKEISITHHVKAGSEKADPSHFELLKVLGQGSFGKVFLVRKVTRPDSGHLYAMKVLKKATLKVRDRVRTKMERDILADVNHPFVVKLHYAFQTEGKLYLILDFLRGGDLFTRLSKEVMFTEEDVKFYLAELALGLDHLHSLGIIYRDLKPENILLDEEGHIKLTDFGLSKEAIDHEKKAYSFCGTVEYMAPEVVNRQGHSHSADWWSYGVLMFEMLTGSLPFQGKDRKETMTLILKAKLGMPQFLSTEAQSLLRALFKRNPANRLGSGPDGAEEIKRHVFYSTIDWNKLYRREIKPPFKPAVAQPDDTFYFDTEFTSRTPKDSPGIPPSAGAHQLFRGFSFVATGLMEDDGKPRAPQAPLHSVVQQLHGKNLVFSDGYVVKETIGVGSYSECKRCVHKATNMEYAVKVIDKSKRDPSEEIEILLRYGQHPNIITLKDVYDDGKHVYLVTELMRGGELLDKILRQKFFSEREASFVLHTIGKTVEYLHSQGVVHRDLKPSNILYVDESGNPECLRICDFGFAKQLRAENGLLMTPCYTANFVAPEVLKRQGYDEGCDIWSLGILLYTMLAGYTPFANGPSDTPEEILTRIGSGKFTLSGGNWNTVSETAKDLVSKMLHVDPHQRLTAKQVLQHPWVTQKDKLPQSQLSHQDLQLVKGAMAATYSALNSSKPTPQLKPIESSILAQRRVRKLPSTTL
UniProt P49336, sequence (whole entry, looked up): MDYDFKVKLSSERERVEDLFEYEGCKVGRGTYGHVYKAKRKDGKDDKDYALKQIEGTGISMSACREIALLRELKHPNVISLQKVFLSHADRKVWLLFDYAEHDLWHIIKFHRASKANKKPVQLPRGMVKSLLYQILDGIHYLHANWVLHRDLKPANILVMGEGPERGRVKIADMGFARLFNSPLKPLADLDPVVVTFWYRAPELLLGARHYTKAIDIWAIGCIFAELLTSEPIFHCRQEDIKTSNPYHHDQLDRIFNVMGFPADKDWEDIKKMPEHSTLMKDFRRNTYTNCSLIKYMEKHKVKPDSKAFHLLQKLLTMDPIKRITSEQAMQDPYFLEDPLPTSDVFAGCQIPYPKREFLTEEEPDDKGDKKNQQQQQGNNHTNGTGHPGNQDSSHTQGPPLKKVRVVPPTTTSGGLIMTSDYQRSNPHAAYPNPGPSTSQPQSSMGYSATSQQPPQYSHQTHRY
UniProt P27448, sequence (whole entry, looked up): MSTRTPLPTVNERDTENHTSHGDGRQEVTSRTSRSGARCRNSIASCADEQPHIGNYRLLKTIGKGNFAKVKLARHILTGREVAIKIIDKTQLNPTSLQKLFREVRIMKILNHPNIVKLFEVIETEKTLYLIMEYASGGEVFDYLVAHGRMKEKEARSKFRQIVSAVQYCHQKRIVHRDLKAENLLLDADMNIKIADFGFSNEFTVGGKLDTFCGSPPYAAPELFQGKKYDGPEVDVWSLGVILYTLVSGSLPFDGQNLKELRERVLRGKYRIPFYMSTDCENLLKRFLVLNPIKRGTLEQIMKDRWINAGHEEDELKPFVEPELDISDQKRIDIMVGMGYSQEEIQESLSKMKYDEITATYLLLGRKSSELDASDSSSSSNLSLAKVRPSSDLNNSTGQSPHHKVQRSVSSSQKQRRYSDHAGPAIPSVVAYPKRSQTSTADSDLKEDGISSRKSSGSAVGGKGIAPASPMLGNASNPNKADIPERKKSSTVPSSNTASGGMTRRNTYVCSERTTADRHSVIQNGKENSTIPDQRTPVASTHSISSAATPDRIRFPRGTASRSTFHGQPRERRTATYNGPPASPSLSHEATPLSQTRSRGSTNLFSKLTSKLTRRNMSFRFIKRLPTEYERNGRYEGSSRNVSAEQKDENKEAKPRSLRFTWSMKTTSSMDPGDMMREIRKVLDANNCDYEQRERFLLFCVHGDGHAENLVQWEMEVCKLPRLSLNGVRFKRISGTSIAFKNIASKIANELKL
UniProt P57058, sequence (whole entry, looked up): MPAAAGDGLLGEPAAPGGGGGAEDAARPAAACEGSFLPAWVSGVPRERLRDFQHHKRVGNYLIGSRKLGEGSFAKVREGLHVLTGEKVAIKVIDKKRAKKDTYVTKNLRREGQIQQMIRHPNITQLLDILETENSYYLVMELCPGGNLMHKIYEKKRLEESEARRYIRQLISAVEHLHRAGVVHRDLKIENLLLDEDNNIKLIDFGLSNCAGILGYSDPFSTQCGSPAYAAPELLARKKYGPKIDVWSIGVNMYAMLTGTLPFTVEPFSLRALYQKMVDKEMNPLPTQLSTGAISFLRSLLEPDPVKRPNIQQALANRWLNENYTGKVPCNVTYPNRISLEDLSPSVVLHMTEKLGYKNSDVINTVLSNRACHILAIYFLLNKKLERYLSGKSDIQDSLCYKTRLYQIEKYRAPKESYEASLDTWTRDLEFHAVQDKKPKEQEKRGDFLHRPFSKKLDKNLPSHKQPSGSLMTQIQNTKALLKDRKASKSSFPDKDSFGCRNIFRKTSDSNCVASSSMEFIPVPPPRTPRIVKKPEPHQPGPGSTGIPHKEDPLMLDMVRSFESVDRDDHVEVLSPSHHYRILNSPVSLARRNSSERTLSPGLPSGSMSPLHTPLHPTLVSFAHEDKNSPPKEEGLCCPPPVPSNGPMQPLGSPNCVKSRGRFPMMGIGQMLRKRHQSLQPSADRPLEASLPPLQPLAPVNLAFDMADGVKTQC
UniProt P24723, sequence (whole entry, looked up): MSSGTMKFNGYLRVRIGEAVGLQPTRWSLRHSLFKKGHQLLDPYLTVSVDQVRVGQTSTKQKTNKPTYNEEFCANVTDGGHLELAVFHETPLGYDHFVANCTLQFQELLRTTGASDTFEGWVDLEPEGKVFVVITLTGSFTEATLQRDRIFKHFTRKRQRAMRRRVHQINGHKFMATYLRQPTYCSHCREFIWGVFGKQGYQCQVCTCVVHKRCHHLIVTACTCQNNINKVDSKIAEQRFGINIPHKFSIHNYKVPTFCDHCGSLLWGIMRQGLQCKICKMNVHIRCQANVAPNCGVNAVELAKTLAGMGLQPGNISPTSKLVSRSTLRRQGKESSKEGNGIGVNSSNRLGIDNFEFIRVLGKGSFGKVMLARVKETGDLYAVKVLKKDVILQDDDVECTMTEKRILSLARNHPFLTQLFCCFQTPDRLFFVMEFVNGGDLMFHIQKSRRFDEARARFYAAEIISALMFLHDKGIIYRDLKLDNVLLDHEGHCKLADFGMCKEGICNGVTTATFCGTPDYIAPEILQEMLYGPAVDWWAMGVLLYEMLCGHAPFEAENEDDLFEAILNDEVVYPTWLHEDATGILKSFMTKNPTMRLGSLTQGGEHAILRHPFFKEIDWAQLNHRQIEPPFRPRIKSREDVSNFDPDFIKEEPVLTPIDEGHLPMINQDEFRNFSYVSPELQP
UniProt Q7KZI7, sequence (whole entry, looked up): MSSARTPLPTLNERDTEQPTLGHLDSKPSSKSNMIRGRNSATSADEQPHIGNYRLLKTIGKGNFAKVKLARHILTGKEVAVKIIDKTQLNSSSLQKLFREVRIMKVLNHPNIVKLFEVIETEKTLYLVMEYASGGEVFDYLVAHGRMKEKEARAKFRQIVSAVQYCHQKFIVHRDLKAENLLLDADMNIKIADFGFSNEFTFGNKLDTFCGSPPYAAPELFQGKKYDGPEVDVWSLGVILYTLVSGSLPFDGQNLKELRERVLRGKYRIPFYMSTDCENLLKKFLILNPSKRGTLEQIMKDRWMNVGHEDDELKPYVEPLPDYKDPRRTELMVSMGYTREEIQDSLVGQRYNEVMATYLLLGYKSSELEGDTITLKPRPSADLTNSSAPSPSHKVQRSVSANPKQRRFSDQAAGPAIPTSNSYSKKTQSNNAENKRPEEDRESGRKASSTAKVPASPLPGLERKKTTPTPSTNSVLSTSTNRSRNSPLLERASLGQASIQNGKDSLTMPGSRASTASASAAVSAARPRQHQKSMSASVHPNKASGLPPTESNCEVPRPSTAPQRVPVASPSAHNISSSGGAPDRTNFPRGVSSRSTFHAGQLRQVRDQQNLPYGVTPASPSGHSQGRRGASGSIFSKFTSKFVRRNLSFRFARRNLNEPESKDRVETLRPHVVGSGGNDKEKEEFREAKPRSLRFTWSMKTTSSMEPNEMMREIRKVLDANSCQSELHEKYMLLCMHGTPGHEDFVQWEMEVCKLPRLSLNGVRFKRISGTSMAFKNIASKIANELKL

Set 1
Structure (SMILES): Cc1nc(C2CCN(C(=O)c3ccc(OC(F)(F)F)cc3N)CC2)c2ncc(N3CCN(C)CC3)cc2n1
Observed: cell-free assay
Technique: competition with immobilised ligand
Tested at: 1 µM
It gave 93% for remaining binding (Ribosomal protein S6 kinase alpha-1, C-terminal kinase domain (RPS6KA1, Homo sapiens, UniProt Q15418)).
It gave 100% for remaining binding (Serine/threonine-protein kinase TBK1 (TBK1, Homo sapiens, UniProt Q9UHD2)).
Cyclin-dependent kinase 8 (CDK8, Homo sapiens, UniProt P49336) — remaining binding: 100%.
For Fibroblast growth factor receptor 3 (FGFR3, Homo sapiens, UniProt P22607, G697C): remaining binding read 100%.
For Hormonally up-regulated neu tumor-associated kinase (HUNK, Homo sapiens, UniProt P57058): remaining binding read 100%.
The remaining binding was 100% (Tyrosine-protein kinase ABL1, phosphorylated (ABL1, Homo sapiens, UniProt P00519, T315I)).
Serine/threonine-protein kinase RIO2 (RIOK2, Homo sapiens, UniProt Q9BVS4) — remaining binding: 100%.
Mitogen-activated protein kinase 9 (MAPK9, Homo sapiens, UniProt P45984) — remaining binding: 100%.
It gave 93% for remaining binding (Serine/threonine-protein kinase PAK 6 (PAK6, Homo sapiens, UniProt Q9NQU5)).
Protein kinase C eta type (PRKCH, Homo sapiens, UniProt P24723) — remaining binding: 88%.
The remaining binding was 93% (G protein-coupled receptor kinase 3 (GRK3, Homo sapiens, UniProt P35626)).
For Ephrin type-A receptor 6 (EPHA6, Homo sapiens, UniProt Q9UF33): remaining binding read 95%.
It gave 78% for remaining binding (Serine/threonine-protein kinase mTOR (MTOR, Homo sapiens, UniProt P42345)).
Serine/threonine-protein kinase MARK2 (MARK2, Homo sapiens, UniProt Q7KZI7) — remaining binding: 100%.
For Tyrosine-protein kinase ABL1, phosphorylated (ABL1, Homo sapiens, UniProt P00519, F317L): remaining binding read 97%.
For Ribosomal protein S6 kinase alpha-1, N-terminal kinase domain (RPS6KA1, Homo sapiens, UniProt Q15418): remaining binding read 100%.
It gave 89% for remaining binding (MAP/microtubule affinity-regulating kinase 3 (MARK3, Homo sapiens, UniProt P27448)).
The remaining binding was 79% (Serine/threonine-protein kinase D1 (PRKD1, Homo sapiens, UniProt Q15139)).

Set 2
Compound: Ic1ccc(Nc2nc(NCCN3CCOCC3)nc(N3CCOCC3)n2)cc1
Relative to: vehicle
The enzyme activity was 115% and 110% and 105% and 113% (wild-type human fibroblasts; GCase activity, 4-MUG hydrolysis lysate; 1 µM, 48 h).
For L444P/L444P Gaucher fibroblasts; 4-MUG hydrolysis in lysate; 0.5 µM, 72 h: enzyme activity read 113% and 114% and 120% and 111% and 118%.
L444P/L444P Gaucher fibroblasts; 4-MUG hydrolysis in lysate; 10 µM, 72 h — enzyme activity: 146% and 153% and 113% and 179% and 115% and 119%.
The enzyme activity was 103% and 106% and 101% and 110% and 98.2% and 109% and 91.2% (L444P/L444P Gaucher fibroblasts; 4-MUG hydrolysis in lysate; 0.1 µM, 72 h).
For glucocerebrosidase L444P (human); 4-MUG hydrolysis in lysate; Gaucher fibroblasts L444P/L444P; 1 µM, 72 h: enzyme activity read 169%.

Set 3
SMILES: CC(=O)N[C@@H](Cc1c[nH]c2ccccc12)C(=O)N[C@@H](CCC(=O)C=[N+]=[N-])C(=O)OC(C)C
Species: C57BL/6 CES1-/- mice, MC-38 tumour
Dose: dose not given
Together with: anti-PD-1
Relative to: initial
day 35 after inoculation — body weight: 91.2% and 99.1% and 98% and 92.1% and 95.7% and 95.9% and 98.7%.
day 13 after inoculation — body weight: 101% and 96.7% and 96.3% and 97.9% and 102% and 98.1% and 97.2%.
It gave 106% and 100% and 101% for body weight (day 66 after inoculation).

Set 4
Species: mouse
Matrix: microsomes or S9
Tested at: 2 µM
Time: 0.5 h
With `C1=Cn2nc(/C=C/c3c[nH]c4ccccc34)nc2-c2ccccc2O1` the remaining compound was 32.3%.
The remaining compound of `Nc1cccc(Nc2nc(-c3ccc(Cl)cc3)cs2)c1` is reported as 21.7%.
With `O=C(c1c(OCC2CC2)cc(=O)n2c1CCOCC2)N1CCN(c2ncccn2)CC1` the remaining compound was 87.1%.
With `O=C(O)c1ccc2c(Br)c(O)c(C(=O)O)cc2c1` the remaining compound was > 99%.
For `Cc1cccc(C(O)(C(=O)NNc2ccc(Br)cn2)c2cccc(C)c2)c1`, the remaining compound was 6.63%.
`O=c1[nH]c2ccccc2c(O)c1-c1ccc(F)cc1` gave a remaining compound of 97.7%.
For `O=C1CCC2=C1C(c1ccccc1)Nc1ccccc1N2` (stereo not shown), the remaining compound was 63.2%.

Set 5
Target: Serine/threonine-protein kinase OSR1 (OXSR1, Homo sapiens, UniProt O95747)
UniProt O95747, sequence (whole entry, looked up): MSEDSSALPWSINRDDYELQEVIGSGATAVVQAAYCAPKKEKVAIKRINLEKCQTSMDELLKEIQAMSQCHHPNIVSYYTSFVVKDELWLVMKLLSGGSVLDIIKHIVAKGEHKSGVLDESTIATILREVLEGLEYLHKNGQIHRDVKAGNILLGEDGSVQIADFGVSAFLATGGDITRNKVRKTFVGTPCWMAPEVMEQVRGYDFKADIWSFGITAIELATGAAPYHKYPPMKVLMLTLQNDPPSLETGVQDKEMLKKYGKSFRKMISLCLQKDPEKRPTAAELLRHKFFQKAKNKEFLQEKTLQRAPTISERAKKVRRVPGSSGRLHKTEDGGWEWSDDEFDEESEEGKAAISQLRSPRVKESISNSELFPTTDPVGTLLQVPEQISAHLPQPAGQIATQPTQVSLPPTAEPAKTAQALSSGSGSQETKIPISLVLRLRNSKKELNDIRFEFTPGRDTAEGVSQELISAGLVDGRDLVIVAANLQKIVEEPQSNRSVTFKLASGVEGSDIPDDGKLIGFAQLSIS
Observed: enzyme activity
Action: inhibitor
Tested at: 0.5 µM
Relative to: control
With `O=S(=O)(NCCNC/C=C/c1ccc(Br)cc1)c1cccc2cnccc12` the remaining activity was 95.9%.
`Fc1ccc(-c2nc3n(c2-c2ccncc2)CCS3)cc1` gave a remaining activity of 92.5%.
For `N#CC(=C(N)Sc1ccc(N)cc1)c1ccccc1C(F)(F)F`, the remaining activity was 101%.
The remaining activity of `CC#CC(=O)Nc1cc2c(Nc3ccc(F)c(Cl)c3)ncnc2cn1` is reported as 109%.

Excerpt of the above (set 1):
Protein kinase C eta type (PRKCH, Homo sapiens, UniProt P24723) — remaining binding: 88%.
It gave 93% for remaining binding (Serine/threonine-protein kinase PAK 6 (PAK6, Homo sapiens, UniProt Q9NQU5)).
The remaining binding was 93% (G protein-coupled receptor kinase 3 (GRK3, Homo sapiens, UniProt P35626)).
It gave 78% for remaining binding (Serine/threonine-protein kinase mTOR (MTOR, Homo sapiens, UniProt P42345)).
For Tyrosine-protein kinase ABL1, phosphorylated (ABL1, Homo sapiens, UniProt P00519, F317L): remaining binding read 97%.
